# Measurements collected from several papers.
# Compare with care: the assays were run in different laboratories.
SMILES,assay,test system,conditions,quantity,value
COc1ccc(-c2c(-c3ccc(C#N)c(F)c3)nc(N3CCC(N)CC3)n(C)c2=O)cc1F,measured: oxygen saturation decreased,human patients,"oral, dose not given, dose escalation",patients with serious TEAE,0%
C[C@]1(O)C[C@@](N)(c2ccc(-c3nc4n(c3-c3ccccc3)COc3ccncc3-4)cc2)C1,,"human, advanced or metastatic solid tumours","dose not given, all patients, any grade",patients with Stomatitis TEAE,17.6%
COc1ncnn2ccc(-c3cnc4nc(C)n(Cc5nnc([C@@H](C)F)o5)c4c3)c12,,human,"oral, dose not given, grade 5",patients with nausea,0%
C=CC(=O)Nc1cc(Nc2nccc(Nc3cc(Cl)c(F)cc3C(C)(C)O)n2)c(OC)cc1N1CC[C@@H](N(C)C)C1,,human patients,"oral, 200 mg, treatment-emergent adverse events",patients with fatigue,6.3%
Cc1cn([C@H]2O[C@@H](CO[P@@](=O)(N[C@@H](C)C(=O)OC(C)C)Oc3ccccc3)[C@H](O)[C@H]2F)c(=O)[nH]c1=O,,human,"oral, 10 mg once daily, 28 days",patients with any TEAE,17%
CN[C@@H](C)C(=O)N[C@H]1CN(S(=O)(=O)c2cccc(S(=O)(=O)N3CC[C@H]4CC[C@@H](C(=O)NC(c5ccccc5)c5ccccc5)N4C(=O)[C@@H](NC(=O)[C@H](C)NC)C3)c2)CC[C@H]2CC[C@@H](C(=O)NC(c3ccccc3)c3ccccc3)N2C1=O,,"human, advanced solid tumours","intravenous, 45 mg weekly, CTCAE version 4.0",patients with any TRAE,80%
C[C@@H]1OC(=O)NN=C1c1ccc(-c2ccc(F)cc2)c(C(F)(F)F)c1,"phase I trial, measured: Diarrhoea all grades",human patients,5 mg once daily,patients with adverse event,0%
Cn1cncc1-c1c(F)cncc1NC(=O)c1c(N)nn2cc(F)cnc12,,human patients,"oral, 180 mg once daily, 21 days, 2 weeks on 1 week off",patients with platelet decrease DLT,0%
O=C1Nc2cc3[nH]nc(-c4ccncc4)c3cc2CN1Cc1ccccc1,CTCAE v4.03,"human, relapsed or refractory advanced solid tumours","intravenous, 1.8 mg/kg, pooled schedules",patients with QTc prolongation,0%
Cn1nc(NS(C)(=O)=O)c2c(Cl)ccc(-n3c([C@H](Cc4cc(F)cc(F)c4)NC(=O)Cn4nc(C(F)F)c5c4C(F)(F)[C@@H]4C[C@H]54)nc4nc(OCCC(F)(F)F)ccc4c3=O)c21,measured: LDL cholesterol grade 2 increase,human,"400 mg once daily, powder in bottle",patients with laboratory abnormality,0%
N[C@@H]1c2ccccc2OC12CCN(c1cnc3c(N4CCCc5ncccc54)n[nH]c3n1)CC2,measured: fatigue,human advanced or metastatic solid tumours,"oral, dose not given, phase Ia all doses",patients with adverse event,23%
CN(C)C(=O)c1cc2cnc(Nc3ccc(N4CCNCC4)cn3)nc2n1C1CCCC1,"measured: Pulmonary toxicity, AESI","human, HR+/HER2− advanced breast cancer","oral, dose not given, grade 4, CTCAE v4.03",patients with adverse event,0.3%

# Excerpt of the above:
SMILES,assay,test system,conditions,quantity,value
N[C@@H]1c2ccccc2OC12CCN(c1cnc3c(N4CCCc5ncccc54)n[nH]c3n1)CC2,measured: fatigue,human advanced or metastatic solid tumours,"oral, dose not given, phase Ia all doses",patients with adverse event,23%
